Experimental data pooled from the literature.
Numbered parts are unrelated; each lists some results of a single study.

Study 1
Target: Ephrin type-A receptor 5 (EPHA5, Homo sapiens, UniProt P54756)
Sequence of UniProt P54756 (whole entry, looked up): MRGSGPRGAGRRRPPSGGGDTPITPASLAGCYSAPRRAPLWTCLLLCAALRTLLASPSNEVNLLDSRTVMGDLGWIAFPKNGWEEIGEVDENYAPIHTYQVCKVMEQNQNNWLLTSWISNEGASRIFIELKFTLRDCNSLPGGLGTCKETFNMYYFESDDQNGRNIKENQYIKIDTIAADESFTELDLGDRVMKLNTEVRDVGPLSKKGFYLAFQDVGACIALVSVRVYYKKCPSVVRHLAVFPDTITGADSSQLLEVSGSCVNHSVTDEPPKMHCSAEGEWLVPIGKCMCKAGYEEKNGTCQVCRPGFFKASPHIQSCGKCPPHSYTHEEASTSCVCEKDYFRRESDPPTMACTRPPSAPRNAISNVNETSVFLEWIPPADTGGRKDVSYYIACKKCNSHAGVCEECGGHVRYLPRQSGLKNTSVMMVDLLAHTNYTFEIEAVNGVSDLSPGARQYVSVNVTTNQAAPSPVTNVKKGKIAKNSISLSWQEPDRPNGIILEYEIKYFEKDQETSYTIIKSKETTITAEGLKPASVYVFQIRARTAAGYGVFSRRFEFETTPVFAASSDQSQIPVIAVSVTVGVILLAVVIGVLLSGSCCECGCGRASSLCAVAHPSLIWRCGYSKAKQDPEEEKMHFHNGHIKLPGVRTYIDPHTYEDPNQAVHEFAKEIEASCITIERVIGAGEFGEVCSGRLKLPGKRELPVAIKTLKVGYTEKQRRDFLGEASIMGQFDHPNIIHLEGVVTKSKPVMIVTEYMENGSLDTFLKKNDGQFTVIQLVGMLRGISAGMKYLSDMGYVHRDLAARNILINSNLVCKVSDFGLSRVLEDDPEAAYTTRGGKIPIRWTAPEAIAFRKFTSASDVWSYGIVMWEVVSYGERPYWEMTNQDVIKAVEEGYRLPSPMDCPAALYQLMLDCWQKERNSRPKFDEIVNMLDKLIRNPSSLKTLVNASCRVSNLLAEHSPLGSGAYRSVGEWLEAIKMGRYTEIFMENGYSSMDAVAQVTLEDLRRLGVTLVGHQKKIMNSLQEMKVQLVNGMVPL
Effect on: enzyme activity
Action: inhibitor
Tested at: 0.5 µM
Baseline: control
SMILES	remaining activity
O=S(=O)(c1cccc2cnccc12)N1CCCNCC1	90.5%
Nc1[nH]nc2nc3ccccc3nc12	90.3%
Nc1ccc2ncnc(NCCc3ccc(Oc4ccccc4)cc3)c2c1	102%
NCCNc1ncc(C(N)=O)c(Nc2cccc(C(F)(F)F)c2)n1	84.6%
COc1ccc(CNC(=O)Nc2ncc([N+](=O)[O-])s2)cc1	117%
Cc1ccc(Nc2nccc(N(C)c3ccc4c(C)n(C)nc4c3)n2)cc1S(N)(=O)=O	99.7%
Cc1nc(-c2ccccc2)c(-c2ccncc2)o1	91.4%
O=C1NC(=O)C(c2cn(CCCO)c3ncccc23)=C1c1cnccn1	99.4%
COc1cc2ncnc(Nc3ccc(F)c(Cl)c3)c2cc1OCCCN1CCOCC1	95.8%
CO[C@H]1C[C@@H]2CC[C@@H](C)[C@@](O)(O2)C(=O)C(=O)N2CCCC[C@H]2C(=O)O[C@H]([C@H](C)C[C@@H]2CC[C@@H](O)[C@H](OC)C2)CC(=O)[C@H](C)/C=C(\C)[C@@H](O)[C@@H](OC)C(=O)[C@H](C)C[C@H](C)/C=C/C=C/C=C/1C	94.7%
OCC(O)CCON=C1C(c2c(O)[nH]c3ccccc23)=Nc2ccccc21 (centres unmarked)	68%
O=c1c2ccccc2[nH]c(=S)n1CCN1CCC(=C(c2ccc(F)cc2)c2ccc(F)cc2)CC1	112%
O=C1NC(=O)C(c2cn(CCCn3ccnc3)c3ccccc23)=C1Nc1ccccc1	96.1%

Study 2
Target: Centromere-binding protein 1, full length, N-terminal tag (CBF1, Saccharomyces cerevisiae, UniProt P17106, residues 1-351)
Sequence of UniProt P17106 (whole entry, looked up): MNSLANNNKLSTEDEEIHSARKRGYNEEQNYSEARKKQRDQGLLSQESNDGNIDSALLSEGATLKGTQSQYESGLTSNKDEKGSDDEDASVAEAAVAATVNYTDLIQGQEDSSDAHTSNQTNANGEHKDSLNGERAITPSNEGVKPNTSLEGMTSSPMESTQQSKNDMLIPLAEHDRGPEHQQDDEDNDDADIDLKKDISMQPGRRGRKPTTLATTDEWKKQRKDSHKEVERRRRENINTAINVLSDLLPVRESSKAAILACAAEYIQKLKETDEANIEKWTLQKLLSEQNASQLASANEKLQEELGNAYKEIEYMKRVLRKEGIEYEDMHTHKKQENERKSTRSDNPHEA
Technique: protein-binding microarray
Form: double-stranded DNA, one strand shown
Matrix: in vitro
Tested at: 0.8 µM
Notes: whole 60-bp probe, no competitor
Direction: higher = stronger binding
All sequences stand within: … GTCTTGATTCGCTTGACGCTGCTG
Strand	fluorescence intensity [a.u.]
GAACACCATGGATTGCTGATGGTAGCTACAGGTTAG	526
GAATCTCCCACTTTATTCGTGATTTAGTGTAGATAG	537
GAAAGCCACTCTCGTCACGGCTCCGTTAAAATGTAG	577
GAATCAGATCGCATTCATCTGATTTCTTACTGATAG	494
GAACACGCGTCCGAACGCGTGAGCATATATGCATAG	716
GAAAACCGCATTGTGACTGCGTACTTTAAACGATAG	547
GAAATGAGTCAAAACCACGTGTAATTAATAAAGTAG	3770
GAATCGACCGATCCTGATGTCTTCGGATGGATTTAG	476

Study 3
Target: RNA binding protein fox-1 homolog 2, RRM domain, GST-SBP tag (RBFOX2, Homo sapiens, UniProt O43251-10, residues 100-194)
Technique: RNA Bind-n-Seq
Form: RNA
Matrix: in vitro
Tested at: 365 nM
Notes: natural RNA segment, single round, ends assumed
Baseline: no-protein control
Direction: higher = stronger binding
All sequences stand within: GGGAGUUCUACAGUCCGACGAUC … UGGAAUUCUCGGGUGCCAA
Strand	RBNS enrichment (R)
UUAAUUCGAAACAACUUGCAGUAUGCAUUUCUUCACACCAGUACAUUCUUAAGUGUACUUGUUUAUAAGGAAUAACAUAAACUAAUCUGUACCUUUAUAUAUAUGUGUGU	0.447
UGUGCUCCCACGGUUCCCAGGGGCCAGGCUGGGAGCCCACAGCCACCCCACUAUGCCGCAGGCCGCCCUACCCACCUUCAGGCAGCCUAUGGGACGCAGGGCCCCAUCUG	0.454
ACUGUGUCCCGAAGGGGCAGUCAAAGUGCAAUAUUAUUGAAACUUCCCUCCCUACACACCCAGUGCGCUGUGGUUACAGACCGUGGGCUCCCUGAGUUCUGCCGGUGAGC	0.401
UGACUUCUUUGCAUAGUGAGUGACUUGGGCCUUCACAAACAGGGUGUGGAGUGGCAGGCAGAGGCCUCUAAAUCUCAGGGCAAACAUGGUGAAUCUAUCUCUCCGGAGAU	0.531
UGAUGUGUCUGUAUAUCAAUCUGUAUCUACAUUUGAUGGACUGAGUAAGAAUGUUGCAUGUGAGAGAAGGGAUGUGACUGUGGACUCAGAUUGACACACACAGAUUGGUG	6.13
UGGGUCUGAGGUUAUCCCUGUCCCCAUGCCCCCUCUGUGCCCCGAGCUCUGUCUCCCCACUCUUGCUGUUGUGUUGUCCUUGUGAAUGUAUGGCUGACCCACUCCAGGCC	3.23
AGCCUGCAUACCCAGCCUACUCUUGGGCCCACUUGGACGCGCUGGCAGGAGGCCUGGGUCUCACCAGCAGGAGUGCGUGCAAGGUGGGAGGGUCGGUCCAUUACAGACCC	1.28
UUUCUCGGCCUCCCAAAGUGCUGGGAUUACGGGUGUGAGCCACCGUGCCCGGCCUGCAAACACAUUUUAAUUGACAACACUAGGGCUGUUGUACAAAAUAGUAAUGAUAG	0.76

Study 4
Target: 5-hydroxytryptamine receptor 7 (HTR7, Homo sapiens, UniProt P34969)
Sequence of UniProt P34969 (whole entry, looked up): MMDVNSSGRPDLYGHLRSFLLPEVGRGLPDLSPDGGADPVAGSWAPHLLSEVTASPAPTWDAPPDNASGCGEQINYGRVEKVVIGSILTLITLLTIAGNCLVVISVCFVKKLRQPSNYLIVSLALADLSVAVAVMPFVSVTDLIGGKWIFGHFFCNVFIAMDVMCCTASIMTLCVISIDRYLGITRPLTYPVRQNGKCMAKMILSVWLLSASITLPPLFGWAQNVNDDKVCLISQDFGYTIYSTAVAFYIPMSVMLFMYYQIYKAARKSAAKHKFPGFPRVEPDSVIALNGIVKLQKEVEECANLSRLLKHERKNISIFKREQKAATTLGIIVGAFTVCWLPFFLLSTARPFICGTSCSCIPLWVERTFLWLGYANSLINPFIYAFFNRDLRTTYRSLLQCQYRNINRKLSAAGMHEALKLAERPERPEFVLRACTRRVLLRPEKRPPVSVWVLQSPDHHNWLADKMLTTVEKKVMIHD
Effect on: ligand displacement
Tested at: 10 µM
Structure (SMILES)	inhibition [%]
Nc1nc(NCc2ccccc2)nc(-c2cccc(CO)c2)n1	15.9
c1ccc(N2CCN(Cc3nc4ccccc4[nH]3)CC2)nc1	28.5
Cc1ncc(-c2cc(Cl)ccc2F)cc1-n1c(=O)n(CC(N)=O)c2ccccc21	12.1
N#CC1(c2ccccn2)CCN(Cc2cc(C(=O)N3CCCC3)c(=O)n3ccccc23)CC1	-22.8
O=C1NC(c2ccccn2)Sc2ccccc21 (centres unmarked)	-5.1
Cn1nc(C(=O)NCc2ccc(C(=O)O)cc2)cc1-c1ccc2[nH]ccc2c1	-4.31
CCOc1ccc(S(=O)(=O)Nc2ccc(Cl)cc2C#Cc2cnc(C(=O)O)cc2OC)c2ncccc12	2.02
C[C@H](c1ccc(F)cc1)N(Cc1cccc(C(=O)O)c1)C(=O)c1cnc2ccccc2c1	-2.7
O=c1nc(-c2ccccn2)sc2ccccc12	-11.3

For quick reference, copied from above (study 1):
SMILES	remaining activity
O=C1NC(=O)C(c2cn(CCCO)c3ncccc23)=C1c1cnccn1	99.4%
COc1cc2ncnc(Nc3ccc(F)c(Cl)c3)c2cc1OCCCN1CCOCC1	95.8%
CO[C@H]1C[C@@H]2CC[C@@H](C)[C@@](O)(O2)C(=O)C(=O)N2CCCC[C@H]2C(=O)O[C@H]([C@H](C)C[C@@H]2CC[C@@H](O)[C@H](OC)C2)CC(=O)[C@H](C)/C=C(\C)[C@@H](O)[C@@H](OC)C(=O)[C@H](C)C[C@H](C)/C=C/C=C/C=C/1C	94.7%
OCC(O)CCON=C1C(c2c(O)[nH]c3ccccc23)=Nc2ccccc21 (centres unmarked)	68%
